Assay results pooled from the literature.
Numbered parts are unrelated; each lists some results of a single study.

Sample 1 — technique: aptamer microarray, sandwich; molecule type: DNA with 2'F-ANA; sample: in vitro; tested at: 200 nM; with: Cy3 exosite-II aptamer, 400 nM; reading: higher = stronger binding; endpoint: mean fluorescence intensity; strand: GGTTGGTGTGGTTGG
Target: Prothrombin, mature alpha-thrombin (F2, Homo sapiens, UniProt P00734)
Notes: whole 15-mer aptamer, many near background
Modification = 2'F-ANA at 2 5 8 9 12 15; value = 176 a.u.
Modification = 2'F-ANA at 1 5 11 12 14 15; value = 88.3 a.u.
Modification = 2'F-ANA at 3 4 6 11 13 15; value = 388 a.u.
Modification = 2'F-ANA at 1 4 5 7 8 9 11 13 14; value = 71.9 a.u.
Modification = 2'F-ANA at 4 6 9 14 15; value = 74.8 a.u.
Modification = 2'F-ANA at 1 4 5 10 13 14 15; value = 62.3 a.u.
Modification = 2'F-ANA at 7 8 10 11 13; value = 146 a.u.
Modification = 2'F-ANA at 1 5 6 7 8 11; value = 54.5 a.u.
Modification = 2'F-ANA at 1 2 3 4 5 8 13 15; value = 56.3 a.u.
Modification = 2'F-ANA at 1 3 6 13 14; value = 113 a.u.
Modification = 2'F-ANA at 2 3 4 5 6 7 10 12; value = 59.8 a.u.
Modification = 2'F-ANA at 1 2 4 6 8 14 15; value = 64.1 a.u.
Modification = 2'F-ANA at 1 3 5 6 7 8 9 10 11 13 14; value = 47.1 a.u.
Modification = 2'F-ANA at 1 3 4 5 7 8 10 14 15; value = 46.5 a.u.
Modification = 2'F-ANA at 2 3 4 10 11 13 15; value = 215 a.u.
Modification = 2'F-ANA at 1 4 10 14; value = 50.7 a.u.
Modification = 2'F-ANA at 1 2 5 6 7 9 10 12 13 15; value = 48.5 a.u.
Modification = 2'F-ANA at 1 2 5 9 11 12 13; value = 67.8 a.u.
Modification = 2'F-ANA at 1 4 5 6 8 10 11 12; value = 104 a.u.
Modification = 2'F-ANA at 1 2 6 9 10 12 13 15; value = 67.2 a.u.
Modification = 2'F-ANA at 1 3 5 6 11 12 14 15; value = 47.2 a.u.
Modification = 2'F-ANA at 1 5 6 11 12; value = 112 a.u.
Modification = 2'F-ANA at 2 4 7 10 15; value = 98.1 a.u.
Modification = 2'F-ANA at 1 2 4 5 6 8 9 10 12 14 15; value = 47 a.u.
Modification = 2'F-ANA at 2 3 7 11 12 13 14 15; value = 421 a.u.

Sample 2 — technique: protein binding microarray; molecule type: double-stranded DNA, one strand shown; sample: in vitro; tested at: not given; relative to: not given; reading: higher = stronger binding; endpoint: E-score
Target: Histone acetyltransferase KAT6A, winged helix 2, GST fusion (KAT6A, Homo sapiens, UniProt Q92794, residues 85-181)
Notes: 8-mer, flanks averaged, mean of 2 arrays, mostly near background
Residues (chain): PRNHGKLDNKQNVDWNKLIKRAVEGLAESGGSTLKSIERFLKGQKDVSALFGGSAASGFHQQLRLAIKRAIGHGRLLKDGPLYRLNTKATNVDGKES
Strand = CACACGTG; value = -0.25
Strand = GCCCATGA; value = 0.108
Strand = CCGTAACG; value = -0.188
Strand = ACATATAG; value = -0.114
Strand = GCCGGCGA; value = 0.133
Strand = GACGTGAA; value = -0.061
Strand = CGAGCAAG; value = 0.0513
Strand = CACCGATA; value = -0.0442
Strand = CATCTCCC; value = -0.138
Strand = CATGCTAC; value = -0.00564
Strand = ATCGACCC; value = -0.00314
Strand = GCAGGTAA; value = -0.094
Strand = ATTCGAAC; value = 0.0852
Strand = ACTAAATG; value = -0.0332
Strand = AATCCCAG; value = 0.0482
Strand = AGTCTCTG; value = 0.00741
Strand = AAATGCAA; value = 0.0382
Strand = ACACACCT; value = -0.0799
Strand = AGCAAGCG; value = 0.0716
Strand = ACAATTTG; value = -0.0496

Sample 3 — technique: RNA Bind-n-Seq; molecule type: RNA; sample: in vitro; tested at: 100 nM; relative to: input RNA pool; reading: higher = stronger binding; endpoint: bound/input enrichment
Target: RING finger protein unkempt homolog, zinc fingers 1-6, SBP tag (UNK, Homo sapiens, UniProt Q9C0B0, residues 30-357)
Sequence of UniProt Q9C0B0 (30-357, looked up): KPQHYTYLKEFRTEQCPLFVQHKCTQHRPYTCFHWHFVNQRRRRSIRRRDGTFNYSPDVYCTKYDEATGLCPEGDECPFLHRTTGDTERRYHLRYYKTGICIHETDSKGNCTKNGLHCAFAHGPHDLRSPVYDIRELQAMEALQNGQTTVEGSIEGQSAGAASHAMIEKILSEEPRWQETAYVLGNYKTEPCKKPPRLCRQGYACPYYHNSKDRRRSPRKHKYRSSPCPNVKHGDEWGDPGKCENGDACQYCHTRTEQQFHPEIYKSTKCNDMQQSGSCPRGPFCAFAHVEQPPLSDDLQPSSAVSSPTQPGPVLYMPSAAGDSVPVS
Notes: RNA with constant flanks, vertebrate orthologous sites, ends assumed
Shared flanks, not repeated: GGGAGUUCUACAGUCCGACGAUC … CAACAGAGGAUUGAGCAUCA
Strand = UGUGCUUAUACUCUUCUAUGGAAGAGAUGAAUUGGGAAAUACUGUUUCCUUUUUAUAGAUUAGUUUGUUUCUAAAUUAUGACCAAAAAUAUUUUGCUAUUUCUUUCUUUAUAUAUGGACA; value = 0.645 ratio
Strand = AAGAUGGUGGUUGUACAUUAUUUCAUUUAGAAAAUAUAAAAAUUCAUUUUGUUUUGAAGCUAGGUGGUAAAACUGGAAUAGCUACUAUACCCUAGAGAAUGGGGCAGUUGUGCCCUUCCC; value = 2.11 ratio
Strand = AGAUCGCCUAGGUAGGGGUGAGCAUUAACCUAGGAAGAAAUGAAAUGCUAAAAAUCAUACUAGUGCUAACUUUAGUUGGGGAAUUUAAAUAGACCGCUUUUACAUCAUUUGAAAAUGAAG; value = 0.978 ratio
Strand = AUUUGGACCUUGAAGCUCAAUCAGGGGACUAGAGAAGUAAAACAAACUUGUAAAAAUUAAUAGCCAUAUGCAACUGCACAACAGUACUGUCUUUCACACCUGUGCUAACAUAUUUAUGCA; value = 0.832 ratio
Strand = GAUUAGUGUCAUACCAGCAUAUUAACCUCUCGUCUGUGCACAGCUUCAAAUGUAACCGUCUAGUUAGAUUUUUAUUUAAAAUAUGAAAAACCGCUUUUCCCAAGACGUUUUUUAAAAACA; value = 1.94 ratio
Strand = GUUGGGUCAUGACCCCUAUAGGUUAGGCCAUGAUGCUUACAGGUUAGGACAGGACCCUUAUAGGUUAGGUCAUGAUCCCUACAGACUAACUCCUGAUCCCUAUAGGAUGUCACCCAGGCC; value = 0.462 ratio
Strand = AGGAAAUGCUGGCUGCAAACCCUCAGGAUCGUCCAGAUGCUUUUGAACUAGAACUCCGAUUAGUACAAAUUGCAUUUAAAGAUAGCAGCUGGGAAACGUGACACAUACUAUUUACAAAUA; value = 2.73 ratio
Strand = UGUCUGCCUCAUUCUGAAAUUUACACAGUAGACCAUUUGUCAUUCAUGCUGUCCCACAAAUAGUUUUUUGUUUACGAUUUAUGACAGGUUUAUGUUACUUCUAUUUGAAUUUCUAUAUUU; value = 0.983 ratio
Strand = UAUAAGAACUCUUGCAGUCUCAGAUGUUAUAAAAAUAUAUAUCUGAAUUGUAAGAGUUGUUAGCACAAGUUCUUUUUUUUUUUUUUUUUAAGCACUUGUUUUGGGUACAAGGCAUUUCUG; value = 0.322 ratio
Strand = AGGGACGCUUUGAUGUAAAAAUUGAAAUUAAGAGCUGAUCACAAGCACAAAUCUUUCCCACUAGCCAUUUAAUAAGUUAAAAAAGAUACAAAAACAAAAACCUACUAGUCUUGAACAAAC; value = 2.94 ratio
Strand = GGUCAUUUAUAGCAAUUAGAGUGGGUUGCCCCUCUACUUCUCCCAAGAAGAAAUCCCAAAUAGCUUCCUUUCAUGUCAGAUUAUACUGUUCUGAUUUUAUUUUCUAUUAUUUUUACAUAU; value = 3.4 ratio

Sample 4 — technique: RNA Bind-n-Seq; molecule type: RNA; sample: in vitro; tested at: 365 nM; relative to: no-protein control; reading: higher = stronger binding; endpoint: RBNS enrichment (R)
Target: RNA binding protein fox-1 homolog 2, RRM domain, GST-SBP tag (RBFOX2, Homo sapiens, UniProt O43251-10, residues 100-194)
Notes: natural RNA segment, single round, ends assumed
Shared flanks, not repeated: GGGAGUUCUACAGUCCGACGAUC … UGGAAUUCUCGGGUGCCAA
Construct (chain): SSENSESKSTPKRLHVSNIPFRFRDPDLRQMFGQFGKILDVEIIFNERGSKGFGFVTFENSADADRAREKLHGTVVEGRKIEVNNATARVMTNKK
Strand = CUCCCCACAGUGGAAUUGUUGAAGUGUGGCGAGUCUGUGCUCGGGACAAUAAAGCUUGUGACAGGUCCAGGACCCCGGCAGUUGGCUUGUCUCCUCCUCUCCGUGGGGAC; value = 0.278
Strand = AGCGUUGCCUUUUUAAAAAGGCACUCACCCUGAGUUGUUAAGAACUGGACCUGCCCCACCCUCAGAUUCCUUAAAGGAUGAAGAGUGUGCUGUACACUCAGCAUAUGUGC; value = 0.199
Strand = GGACCUCUCCUGAGAGGCAAAACCUGUUGCCUCCACCACGGCUUCCCUCUUGGCUCAUUCCAAGCUUGGCCAAAUUGGGGAAGUGGGAUGGAGGUUGCCCUGCAUCCCCC; value = 0.476
Strand = CCUCCCCUAAUCUGAGAAGUCAGCCUCUUGGCUCCUCAGGCCACCAUUUAGGCCUGACUGGGGUAAGAAAUGUCGCUCCACUUUACAGAGGUAGCUGUGGUGUUGAAACA; value = 0.22
Strand = CAGAACCUGGAACCUAGAGGCCUUUCUCUCUGCACGAAAAACAGGUAGUUUGCAGUCUGAGAUAUGGGAGAGCUUUUAGGCUACACAGCAACCCAAGGGACCUCUCACCU; value = 2.36
Strand = UGGGAGCUGUUCCUGGACAGCCUUCUACUGCCUGGGAAGUGAUGGAACAGGAACUCAGGGUGCCCUUACCCCCUCCCCAGACCUGUUCCCUUUCUUUGACUGACAGAGCA; value = 0.736
Strand = AACCCUUUGUAACCGGGGCCUUGCCCCCACCUCCUGUCUUUUCUCCUUGCCUUCCCCACUCCUGUGUCCUCCCAUCUAUCCUGUCUUUCCUUUCCUCCUCUCAGUGUCCU; value = 2.02
Strand = GAAUGUCCCUUCCAUUUCUGAGAACAAGUCAGCCCCUUCUACCUGCCUCCACCCAGGAGACUGAUGCACAAGAUCUGUUUGUGAAAGCCUGAUUUAAAAAGAAAAAAAAA; value = 0.339
Strand = AAUAGUCUCCCCAUCCCAUGAGGGGGCUUUGAUGGCCCUGGAGACCCUACAGUAAAUAAACCAGCAUCGUGCCGCCCAAAGCCGCCUCUGCUUAGUUGCCAAACAAGGGG; value = 0.441
Strand = UUGGUUCUGGGAAGGUAAGAUGUAGCCAGUUUUCAUCUGGGCACCUCUGAAAGAGAAGGAGUGCAGGAGAGUAAGUCUCUCAAGGACGUUCAACAAAGGACCAGCAGCAU; value = 1.05
Strand = UCAGAUGCAGGUGGUACCCACACGACCAGAGUGAUCAAUAGGAAUUUUCUUGGUGUUCCUUUCUUCCAGCACAGUGCAAGAUAGAGUUGCUGUUGAUGCCAUAUGUUUAG; value = 0.914
Strand = UGGAAAUAACAGGCGGGCUUCACGGUGCGGCUCUGUCCGCCCAUGCCCCGCUGGGUCUGCAGGGAACUGGACUGUCCCAUGGCCUGUGAGCACCGGAGCGCCUGGCUGCC; value = 0.262

Some of these lines once more (sample 2):
Strand = AGTCTCTG; value = 0.00741
Strand = AAATGCAA; value = 0.0382
Strand = ACACACCT; value = -0.0799
Strand = AGCAAGCG; value = 0.0716
